# Results pooled from the literature.
# ± marks the error that the study gave.
SMILES,cell line,test,system,conditions,how to read,measurement,value
N=C(N)NCCC[C@@H](NC(=O)[C@H](N)Cc1c[nH]c2ccccc12)C(=O)N[C@H](CCCCN)C(=O)N[C@H](Cc1c[nH]c2ccccc12)C(=O)N[C@H](CCCNC(=N)N)C(=O)N[C@H](CCCCN)C(=O)N[C@H](Cc1c[nH]c2ccccc12)C(=O)N[C@H](CCCNC(=N)N)C(=O)N[C@H](CCCCN)C(=O)N[C@H](Cc1c[nH]c2ccccc12)C(=O)N[C@H](CCCNC(=N)N)C(=O)N[C@H](CCCCN)C(N)=O,HK-2,"cytotoxicity, MTT",,24 h,,IC50,128 µM
COc1ccc(CCNc2c(NC3CCN(Cc4ccccc4)CC3)c(=O)c2=O)cc1OC,SH-SY5Y,MTT,,"6.25 µM, 24 h",,viability,108 ± 1.38%
CCn1c(SCc2ccc(Cl)cc2)nc2cc3ccccc3cc2c1=O,BGM,morphology and trypan blue,,72 h,,maximum non-toxic concentration,60 µg/mL
CSCC[C@H](NC(=O)CCCCCNC(=S)Nc1ccc2c(c1)C(=O)OC21c2ccc(O)cc2Oc2cc(O)ccc21)C(=O)N[C@@H](C)C(=O)N[C@@H](CC(N)=O)C(=O)N[C@@H](CC(C)C)C(=O)NCC(=O)N[C@@H](Cc1ccc(O)cc1)C(=O)N[C@@H](Cc1c[nH]c2ccccc12)C(=O)N[C@@H](CC(C)C)C(=O)N[C@@H](CC(C)C)C(=O)N[C@@H](C)C(=O)N[C@@H](CC(C)C)C(=O)N[C@@H](Cc1ccccc1)C(=O)N[C@H](C(=O)N[C@H](C(=O)N[C@@H](Cc1ccc(O)cc1)C(=O)N[C@@H](Cc1c[nH]c2ccccc12)C(=O)N[C@H](C(=O)N[C@@H](CC(=O)O)C(=O)N[C@@H](CC(C)C)C(=O)NCC(=O)N[C@@H](CC(C)C)C(=O)N[C@H](C(=O)N[C@@H](CCCCN)C(=O)N[C@@H](CCCCN)C(=O)N[C@@H](CCCNC(=N)N)C(=O)N1CCC[C@H]1C(=O)N[C@@H](CCCCN)C(=O)N1CCC[C@H]1C(=O)O)C(C)C)[C@@H](C)O)[C@@H](C)O)C(C)C,human PBMCs,"imaging flow cytometry, FITC-labelled",,"1 µM, 30 min",reference: CD19+ B cells,cells with internalized IRF5-colocalized peptide,19.2%
CN(C)c1ccc2c(c1)Oc1cc(N(C)C)ccc1C21OC(=O)c2cc(C(=O)NCC(=O)N[C@H](CCCNC(=N)N)C(=O)N[C@H](CCCCN)C(=O)N[C@H](CCCCN)C(=O)N[C@H](CCCNC(=N)N)C(=O)N[C@H](CCCNC(=N)N)C(=O)N[C@H](CCC(N)=O)C(=O)N[C@H](CCCNC(=N)N)C(=O)N[C@H](CCCNC(=N)N)C(=O)N[C@H](CCCNC(=N)N)C(=O)O)ccc21,BHK-21,,,"10 µM, 60 min, 4 °C, TAMRA-labelled",reference: 37 °C,uptake reduction,~12%
Cc1cc([N+](=O)[O-])nc2c1NC(=O)c1cccnc1N2C1CC1,primary human hepatocytes,"CYP3A4 activity, inducer",,"100 µM, 72 h, together with: midazolam 1'-hydroxylation",reference: untreated,fold change,no effect
CN1CCN(C(=O)N[C@@H](Cc2ccccc2)C(=O)N[C@H](/C=C/S(=O)(=O)c2ccccc2)CCc2ccccc2)CC1,"Vero E6, HeLa-ACE2, Caco-2, A549-ACE2, Calu-3",,,10 to 100 µM,,cytotoxicity,not toxic
CC(C)C[C@H](NC(=O)[C@H](CCCCN)NC(=O)[C@H](CC(C)C)NC(=O)[C@H](CC(C)C)NC(=O)[C@H](CCCCN)NC(=O)[C@H](CCCCN)NC(=O)[C@H](CC(C)C)NC(=O)[C@H](CC(C)C)NC(=O)[C@H](CCCCN)NC(=O)[C@H](CC(C)C)NC(=O)[C@H](CC(C)C)NC(=O)[C@H](CCCCN)NC(=O)[C@H](CCCCN)NC(=O)[C@H](CC(C)C)NC(=O)[C@@H](N)CSSC[C@H](N)C(=O)N[C@@H](CC(C)C)C(=O)N[C@@H](CCC(=O)O)C(=O)N[C@@H](CCC(=O)O)C(=O)N[C@@H](CC(C)C)C(=O)N[C@@H](CC(C)C)C(=O)N[C@@H](Cc1c[nH]cn1)C(=O)N[C@@H](Cc1c[nH]cn1)C(=O)N[C@@H](CC(C)C)C(=O)N[C@@H](CCC(=O)O)C(=O)N[C@@H](CCC(=O)O)C(=O)N[C@@H](CC(C)C)C(=O)N[C@@H](CC(C)C)C(=O)N[C@@H](Cc1c[nH]cn1)C(=O)N[C@@H](Cc1c[nH]cn1)C(N)=O)C(N)=O,mouse erythrocytes,,,"200 µM, 1 h, 37 °C",reference: Triton X-100,hemolysis,~11.3%
O=C(CCCC[C@@H]1SC[C@@H]2NC(=O)N[C@@H]21)NCCCC[C@@H](NC(=O)[C@@H](Cc1ccccc1)NC(=O)[C@@H](Cc1ccccc1)NC(=O)Cc1ccc2ccccc2c1)C(=O)N[C@H](Cc1ccc(OP(=O)(O)O)cc1)C(=O)O,HS5,"dephosphorylation, refers to: D1-B",,24 h,,conversion,68.5%
O=c1c2cc3ccccc3cc2[nH]c(=S)n1Cc1ccccc1,BGM,morphology and trypan blue,,72 h,,maximum non-toxic concentration,60 µg/mL
CC[C@H](C)[C@H](NC(=O)[C@H](CCC(=O)O)NC(=O)CNC(=O)[C@@H](NC(=O)[C@H](CC(C)C)NC(=O)[C@H](CC(C)C)NC(=O)[C@H](CC(C)C)NC(=O)[C@H](CC(C)C)NC(=O)[C@H](CS)NC(=O)[C@H](CO)NC(=O)[C@H](Cc1ccccc1)NC(=O)CNC(=O)[C@H](CCCNC(=N)N)NC(=O)[C@@H]1CCCN1C(=O)[C@H](C)NC(=O)[C@H](CCSC)NC(=O)CNC(=O)CNC(=O)[C@H](Cc1ccccc1)NC(=O)[C@H](CCCCN)NC(=O)[C@H](Cc1c(C)cc(O)cc1C)NC(=O)[C@H](N)CCCNC(=N)N)[C@@H](C)O)C(=O)N[C@@H](CC(=O)O)C(=O)N[C@@H](CC(C)C)C(=O)N1CCC[C@H]1C(=O)N[C@H](C(=O)N[C@@H](CCCCN)C(=O)N[C@@H](CCCNC(=N)N)C(=O)N[C@@H](CCCNC(=N)N)C(=O)N[C@@H](C)C(N)=O)C(C)C,bEnd.3 monolayer,transwell BBB model,,"10 µM, 2 h, FITC-labelled",reference: HNG,BBB penetration,9.54 fold
CC[C@H](C)[C@H](NC(=O)[C@@H](NC(=O)[C@H](CCCCN)NC(=O)[C@@H](NC(=O)[C@@H]1CCCN1[C@@H]1CN(C(=O)[C@@H](NC(=O)[C@@H](NC(=O)[C@@H](NC(=O)[C@@H](NC(=O)[C@@H](NC(=O)[C@@H](N)CCCCN)C(C)C)C(C)C)C(C)C)[C@@H](C)CC)[C@@H](C)O)CC[C@H]1NS(=O)(=O)c1ccc(C)cc1)[C@@H](C)O)C(C)C)C(=O)N[C@@H](CC(C)C)C(=O)N[C@@H](Cc1c[nH]cn1)C(N)=O,PC-12 (neuronally differentiated),LDH release,,20 h,,highest non-toxic concentration,≥ 100 µM
COc1cccc(CCNc2c(NC3CCN(Cc4ccccc4)CC3)c(=O)c2=O)c1,SH-SY5Y,MTT,,"6.25 µM, 24 h",,viability,90.6 ± 2.06%
NCCCC[C@H](NC(=O)[C@H](Cc1ccccc1)NC(=O)[C@H](CCCCN)NC(=O)[C@H](Cc1ccccc1)NC(=O)[C@H](CCC(=O)O)NC(=O)[C@H](Cc1ccccc1)NC(=O)[C@H](CCC(=O)O)NC(=O)[C@@H](N)Cc1ccccc1)C(=O)O,hMSC,RP-HPLC,"hydrogel, serum-free medium","day 12, hydrogel 25 mg/mL, 20 mM",reference: day 0,intact peptide remaining,8.4 ± 1.4%
Cc1cc(C)cc([C@H]2C[C@@H]2C(=O)N[C@@H](C(=O)NCc2ccccc2)c2ccc(C)c(C)c2)c1,BHK-21,"cell growth or viability, MTT",,24 h,,CC50,> 100 µM
O=c1c(NCCc2ccccc2)c(NC2CCN(Cc3ccccc3)CC2)c1=O,SH-SY5Y,MTT,,"12.5 µM, 24 h",,viability,118 ± 2.16%
O=C(CCC(=O)OCCNC(=O)[C@H](Cc1ccccc1)NC(=O)[C@H](Cc1ccccc1)NC(=O)Cc1ccc2ccccc2c1)NCCS(=O)(=O)O,SK-OV-3,,,"50 µM, 4 h",reference: hydrogelator over precursor,ratio,6.95
CCn1c(SCc2ccc(C#N)cc2)nc2cc3ccccc3cc2c1=O,BGM,morphology and trypan blue,,72 h,,maximum non-toxic concentration,50 µg/mL
Cc1c(C)c(C)[c-](C)c1C.Fc1c[c-]c(-c2ccccn2)cc1.[Cl-].[Ir+3],A2780,"ICP-MS, refers to: iridium in cytosol fraction",,IC50,,iridium share in fraction,51.4%
CCCCCCCCCCCCCCCC(=O)OCC(CSC[C@H](N)C(=O)N[C@@H](CO)C(=O)N[C@@H](CCCCN)C(=O)N[C@@H](CCCCN)C(=O)N[C@@H](CCCCN)C(=O)N[C@@H](CCCCN)C(=O)NCCCCCC(=O)N[C@@H](CCCCN)C(=O)N[C@@H](CC(C)C)C(=O)N[C@H](C(=O)N[C@@H](Cc1ccccc1)C(=O)N[C@@H](Cc1ccccc1)C(=O)N[C@@H](Cc1ccc2ccccc2c1)C(=O)O)C(C)C)OC(=O)CCCCCCCCCCCCCCC (stereo partly drawn),BV-2,"western blot, refers to: NLRP3",,"1.0 µM, 12 h",,protein level,increased
CC(C)C[C@H](NC(=O)[C@H](CCCCN)NC(=O)[C@H](CC(C)C)NC(=O)[C@H](CC(C)C)NC(=O)[C@H](CCCCN)NC(=O)[C@H](CCCCN)NC(=O)[C@H](CC(C)C)NC(=O)[C@H](CC(C)C)NC(=O)[C@H](CCCCN)NC(=O)[C@H](CC(C)C)NC(=O)[C@H](CC(C)C)NC(=O)[C@H](CCCCN)NC(=O)[C@H](CCCCN)NC(=O)[C@H](CC(C)C)NC(=O)[C@@H](N)CSSC[C@H](N)C(=O)N[C@@H](CC(C)C)C(=O)N[C@@H](Cc1c[nH]cn1)C(=O)N[C@@H](CCC(=O)O)C(=O)N[C@@H](CC(C)C)C(=O)N[C@@H](CC(C)C)C(=O)N[C@@H](CCC(=O)O)C(=O)N[C@@H](Cc1c[nH]cn1)C(=O)N[C@@H](CC(C)C)C(=O)N[C@@H](Cc1c[nH]cn1)C(=O)N[C@@H](CCC(=O)O)C(=O)N[C@@H](CC(C)C)C(=O)N[C@@H](CC(C)C)C(=O)N[C@@H](CCC(=O)O)C(=O)N[C@@H](Cc1c[nH]cn1)C(N)=O)C(N)=O,mouse erythrocytes,,,"200 µM, 1 h, 37 °C",reference: Triton X-100,hemolysis,~22.2%
N=C(N)NCCC[C@@H]1NC(=O)[C@H](Cc2csc3ccccc23)NC(=O)[C@@H](Cc2ccccc2)NC(=O)[C@H](Cc2ccccc2)NC(=O)[C@H](CCC(=O)NCCOCCOCC(=O)N[C@@H](CCCCNC(=O)c2ccc3c(c2)C(=O)OC32c3ccc4cc(O)ccc4c3Oc3c2ccc2cc(O)ccc32)C(N)=O)NC(=O)[C@@H](CCCNC(=N)N)NC(=O)[C@H](CCCNC(=N)N)NC(=O)[C@@H](CCCNC(=N)N)NC1=O,HeLa,"cell penetration, flow cytometry",,"0.5 µM, 2 h, 1% FBS",reference: CPP12,cytosolic entry,186 ± 7%
COc1ccc(CNc2c(NC3CCN(Cc4ccccc4)CC3)c(=O)c2=O)cc1OC,SH-SY5Y,MTT,,"6.25 µM, 24 h",,viability,105.6 ± 0.67%
O=C1CCCC2=C1C(c1c[nH]c3ccccc13)n1c(sc(=Cc3c[nH]c4ccccc34)c1=O)=N2 (stereo not drawn),SH-SY5Y,"cell growth or viability, MTT",,40 µM,,viability,95.4%
Cc1ccc(Nc2c(NC3CCN(Cc4ccccc4)CC3)c(=O)c2=O)cc1,SH-SY5Y,MTT,,"12.5 µM, 24 h",,viability,94.83 ± 0.43%
CC[C@H](C)[C@@H]1NC(=O)CNC(=O)[C@H](CCSC)NC(=O)[C@H](C(C)C)NC(=O)[C@H]([C@@H](C)O)NC(=O)[C@@H]2CSSC[C@@H]3NC(=O)[C@H](Cc4c[nH]cn4)NC(=O)[C@@H](NC(=O)[C@@H](NC(=O)[C@H](Cc4ccccc4)NC(=O)[C@H](C)N)[C@@H](C)O)CSSC[C@@H](C(=O)N[C@@H](CC(C)C)C(=O)O)NC(=O)[C@H](CSSC[C@H](NC(=O)[C@H](CO)NC(=O)[C@H](CCCNC(=N)N)NC(=O)[C@H](CCCNC(=N)N)NC3=O)C(=O)N[C@@H](Cc3ccc(O)cc3)C(=O)N[C@@H](CO)C(=O)N[C@@H]([C@@H](C)O)C(=O)N[C@@H](CCC(=O)O)C(=O)N[C@@H](Cc3ccc(O)cc3)C(=O)N[C@@H](CO)C(=O)N[C@@H](Cc3ccc(O)cc3)C(=O)NCC(=O)N[C@@H]([C@@H](C)O)C(=O)N2)NC(=O)[C@H](Cc2ccccc2)NC(=O)[C@H](CCCNC(=N)N)NC(=O)[C@H](Cc2c[nH]cn2)NC(=O)[C@H](CC(N)=O)NC1=O,SH-SY5Y,LDH release,,"0.1 µM, 24 h, together with: amyloid-beta 20 µM",,reduction of cytotoxicity,24%
O=c1c(NCc2ccc(Br)cc2)c(NC2CCN(Cc3ccccc3)CC2)c1=O,SH-SY5Y,MTT,,"6.25 µM, 24 h",,viability,91.95 ± 0.52%
CC1C(=NOCc2cn(-c3ccccc3)nn2)C(C)C(c2ccc(Br)cc2)OC1c1ccc(Br)cc1 (stereo not drawn),human PBMC,"cytotoxicity, MTT",,,,IC50,317 µg/mL
CCn1c(=S)[nH]c2cc3ccccc3cc2c1=O,BGM,morphology and trypan blue,,72 h,,maximum non-toxic concentration,60 µg/mL
CCc1ccc(Nc2c(NC3CCN(Cc4ccccc4)CC3)c(=O)c2=O)cc1,SH-SY5Y,MTT,,"6.25 µM, 24 h",,viability,88.1 ± 2.02%
